Published values of several laboratories.
Protocols differ between the studies behind these lines. “And” joins repeats or separate records; there may be more than shown. Numbers after ± are the reported error.
Cell line: RPMI-8226

SMILES | assay | test system | setting | how to read | endpoint | result
Cc1n[nH]c2nc(-c3ccc(Cl)cc3)c3c(NC(=O)c4ccccc4)nnc-3n12 | SRB |  | 10 µM, NCI60 single-dose screen | reference: untreated | cell growth | 84.3%
CCOc1ccc(-c2nc3cc(-c4nc5cc(N6CCN(C)CC6)ccc5[nH]4)ccc3[nH]2)cc1OCC | SRB |  | 10 µM, 48 h |  | growth percent | 45.8%
C#C[C@@]1(O)[C@@H](CO)O[C@@H](n2cc(F)c3c(N)ncnc32)[C@@H]1O | SRB |  | NCI-60 screen |  | TGI | 1980 nM
Cc1cc(C)n(C(=S)[S][Au][PH](CCCCCC[PH]([Au][S]C(=S)n2nc(C)cc2C)(c2ccccc2)c2ccccc2)(c2ccccc2)c2ccccc2)n1 | cell growth, NCI-60 screen |  | leukemia |  | log10 TGI | -6.38
Cn1cncc1C1=CN(c2ncnc3[nH]cnc23)CCS1 |  |  | leukemia |  | GI50 | 17800 nM
CCn1cc(-c2cc(Cn3ccoc3=N)cc3c2CCN([C@@H](C)c2cc(OC)ccn2)C3=O)c(C(F)(F)F)n1 | cell growth, inhibitor |  | 120 h |  | EC50 | 1490 nM
CCCN1CCN(c2ccc3nc(-c4ccc5nc(-c6cc(OC)ccc6OC)[nH]c5c4)[nH]c3c2)CC1 | SRB |  | 10 µM, 48 h |  | growth percent | -17.1%
CCOC(=O)CSc1nc(-c2ccc(Cl)cc2)c2c(NC(=O)c3ccccc3)nnc-2[nH]1 | SRB |  | 10 µM, NCI60 single-dose screen | reference: untreated | cell growth | 82.2%
COc1cnc2cccc(N3CCc4c(cc(Cn5ccnc5C)cc4-c4cn(C)nc4C(F)(F)F)C3=O)c2c1 | cell growth, inhibitor |  | 120 h |  | EC50 | 3510 nM
CC(=O)O[C@H]1C(=O)[C@@]2(C)[C@H]([C@H](OC(=O)c3ccccc3)[C@]3(O)C[C@H](OC(=O)[C@H](O)[C@@H](NC(=O)c4ccccc4)c4ccccc4)C(C)=C1C3(C)C)[C@]1(OC(C)=O)CO[C@@H]1C[C@@H]2O | sulforhodamine B | Leukemia cancer | NCI60 screen |  | TGI | 320 nM
Cc1cc(=O)[nH]n1-c1nc(-c2ccc(Cl)cc2)c2c(NC(=O)c3ccccc3)nnc-2[nH]1 | SRB |  | 10 µM, NCI60 single-dose screen | reference: untreated | cell growth | 89.1%
O=C1NCCc2[nH]c(-c3ccncc3)cc21 | cytotoxicity, MTS | NCI60 panel | multiple myeloma |  | IC50 | > 10000 nM
COc1ccc(OC)c(-c2nc3ccc(-c4nc5ccc(N6CCN(C)CC6)cc5[nH]4)cc3[nH]2)c1 | SRB |  | 10 µM, 48 h |  | growth percent | 89.2%
O=c1ccn(Cc2cn(-c3c4ccccc4nc4ccccc34)nn2)c(=O)[nH]1 | NCI60 single-dose screen |  | 10 µM |  | growth percentage | 87.3%
CCCCN1CCN(c2ccc3[nH]c(-c4ccc5[nH]c(-c6cc(OC)c(OC)c(OC)c6)nc5c4)nc3c2)CC1 | SRB |  | 10 µM, 48 h |  | growth percent | 55.9%
Cc1cc(-c2ccccc2)n(-c2nc(-c3ccc(Cl)cc3)c3c(NC(=O)c4ccccc4)nnc-3[nH]2)n1 | SRB |  | 10 µM, NCI60 single-dose screen | reference: untreated | cell growth | 96%
CN1CCN(c2ccc3[nH]c(-c4ccc5[nH]c(-c6ccc(C(F)(F)F)cc6)nc5c4)nc3c2)CC1 | SRB |  | 10 µM, 48 h |  | growth percent | -9.04%
O=C1NC(c2ccccc2)(c2ccccc2)C(=O)N1Cc1cn(-c2c3ccccc3nc3ccccc23)nn1 | NCI60 single-dose screen |  | 10 µM |  | growth percentage | 72.4%
O=C(Nc1nnc2[nH]c(=S)[nH]c(-c3ccc(Cl)cc3)c1-2)c1ccccc1 | SRB |  | 10 µM, NCI60 single-dose screen | reference: untreated | cell growth | 96.3%
Nc1cccc2c1C(=O)N(C1CCC(=O)NC1=O)C2=O (stereo not drawn) | flow cytometry, refers to: CD100 |  | concentration not given | reference: comparator compound alone | surface marker level | 197%
Cc1cc(=O)[nH]c(=O)n1Cc1cn(-c2c3ccccc3nc3ccccc23)nn1 | NCI60 single-dose screen |  | 10 µM |  | growth percentage | 55.5%
C#C[C@@]1(O)[C@@H](CO)O[C@@H](n2cc(Br)c3c(N)ncnc32)[C@@H]1O | SRB |  | NCI-60 screen |  | TGI | 733 nM and 934 nM
CCCN1CCN(c2ccc3[nH]c(-c4ccc5[nH]c(-c6cc(OC)c(OC)c(OC)c6)nc5c4)nc3c2)CC1 | SRB |  | 10 µM, 48 h |  | growth percent | 95.3%
COC[C@H](NC(=O)[C@H](CCC(=O)NC(C)(C)C)NS(=O)(=O)c1ccc(C)cc1)C(=O)NCc1ccc(F)c2ccccc12 | cell viability, CellTiter-Glo |  | 72 h |  | EC10 | 250 nM
CCN(CC)c1ccc(C=NNC(=O)CSc2nc3ccccc3c(=O)n2Cc2ccc(S(N)(=O)=O)cc2)c(O)c1 | NCI five-dose screen |  |  |  | TGI | 4850 nM
CSc1nc(-c2ccc(Cl)cc2)c2c(NC(=O)c3ccccc3)nnc-2[nH]1 | SRB |  | 10 µM, NCI60 single-dose screen | reference: untreated | cell growth | 91.8%
CC(C)(C)NC(=O)C[C@H](NC(=O)C(=O)c1c[nH]c2ccccc12)C(=O)NCc1cccc(B(O)O)c1 | cytotoxicity |  | 72 h, 10% FBS |  | EC50 | 2300 ± 600 nM

Repeated from above:
SMILES | assay | test system | setting | how to read | endpoint | result
O=C1NCCc2[nH]c(-c3ccncc3)cc21 | cytotoxicity, MTS | NCI60 panel | multiple myeloma |  | IC50 | > 10000 nM
Cc1cc(C)n(C(=S)[S][Au][PH](CCCCCC[PH]([Au][S]C(=S)n2nc(C)cc2C)(c2ccccc2)c2ccccc2)(c2ccccc2)c2ccccc2)n1 | cell growth, NCI-60 screen |  | leukemia |  | log10 TGI | -6.38
C#C[C@@]1(O)[C@@H](CO)O[C@@H](n2cc(F)c3c(N)ncnc32)[C@@H]1O | SRB |  | NCI-60 screen |  | TGI | 1980 nM
